# Earlier results, collected from citations in different studies.
# Lines come from different studies, so protocols differ. Numbers after ± are the reported error.
# Sequence of UniProt Q8N752 (whole entry, looked up): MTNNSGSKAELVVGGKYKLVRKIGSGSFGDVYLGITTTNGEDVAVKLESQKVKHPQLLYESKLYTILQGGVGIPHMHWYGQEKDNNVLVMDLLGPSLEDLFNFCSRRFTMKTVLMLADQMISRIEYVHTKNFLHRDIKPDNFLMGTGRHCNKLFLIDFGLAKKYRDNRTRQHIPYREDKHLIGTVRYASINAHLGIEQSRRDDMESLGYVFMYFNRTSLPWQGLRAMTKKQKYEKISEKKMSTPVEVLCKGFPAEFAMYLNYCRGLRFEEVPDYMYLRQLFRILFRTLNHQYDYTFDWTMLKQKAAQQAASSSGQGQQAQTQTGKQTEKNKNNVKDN
Compound,target or system,assay,test system,setting,how to read,endpoint,value
N/C(CC(O)c1cc2c(F)cc(F)cc2c2cc(C(F)(F)F)ccc12)=N\c1ccc(F)cc1 (stereo not shown),Plasmodium falciparum,,3D7,,,IC50,2.3 ± 1.1 nM
Cc1ccc(/C=C2/SC(=Nc3ccccc3)NC2=O)c(C)c1,Plasmodium falciparum,whole cell extended time,3D7,72 h,,IC50,560 nM
O=C(/C=C/c1cccc(S(=O)(=O)Nc2ccccc2)c1)NO,Plasmodium falciparum,parasite growth,3D7,,,IC50,115 ± 78 nM
Nc1cc(C(F)(F)F)c(-c2nc(N3CCOCC3)nc(N3CCOCC3)n2)cn1,"CSNK1A1L (Homo sapiens, UniProt Q8N752)",enzyme activity,,10 µM,baseline: untreated,remaining activity,95%
CCCCN(CCCC)CC(O)c1cc(Cl)cc2c1-c1ccc(Cl)cc1/C2=C/c1ccc(Cl)cc1 (stereo not shown),Plasmodium falciparum,,3D7,,,IC50,6.4 ± 3.2 nM
COc1cc(O)c2c(c1O)-c1nccc(C)c1C2=O,Plasmodium falciparum,,3D7,,,IC50,9900 nM
O=C(Nc1ccc(Cl)c(Cl)c1)Nc1ccc(Cl)c(Cl)c1,Plasmodium falciparum,parasite growth,3D7,,,IC50,1160 nM
Cc1[nH]c(C)c(-c2ccc(-c3ccc(Cl)cc3)cc2)c(=O)c1Cl,Plasmodium falciparum,whole cell extended time,3D7,72 h,,IC50,210 nM
C/C=C1\NC(=O)[C@H]2CSSCC/C=C/[C@H](CC(=O)N[C@H](C(C)C)C(=O)N2)OC(=O)[C@H](C(C)C)NC1=O,Plasmodium falciparum,parasite growth,Dd2 (chloroquine-resistant),,,IC50,130 ± 40 nM
CCCCCCCCc1c(C)[nH]c(C)c(C#N)c1=O,Plasmodium falciparum,whole cell extended time,3D7,72 h,,IC50,400 nM
CC(=O)O[C@H](C)C(=O)CCCCC[C@@H]1NC(=O)[C@H]2CCCN2C(=O)[C@H](Cc2ccccc2)NC(=O)C(C)(C)NC1=O,Plasmodium falciparum,,,,,IC50,22.1 nM
C/C=C/COc1ccc(-c2c(C)[nH]c(C)c(Cl)c2=O)cc1,Plasmodium falciparum,whole cell extended time,3D7,72 h,,IC50,200 nM
Cc1[nH]c2ccccc2c1CCNCc1ccc(/C=C/C(=O)NO)cc1,Plasmodium falciparum,parasite growth,3D7,,,IC50,7 ± 4 nM

# A few entries again:
Compound,target or system,assay,test system,setting,how to read,endpoint,value
Nc1cc(C(F)(F)F)c(-c2nc(N3CCOCC3)nc(N3CCOCC3)n2)cn1,"CSNK1A1L (Homo sapiens, UniProt Q8N752)",enzyme activity,,10 µM,baseline: untreated,remaining activity,95%
C/C=C/COc1ccc(-c2c(C)[nH]c(C)c(Cl)c2=O)cc1,Plasmodium falciparum,whole cell extended time,3D7,72 h,,IC50,200 nM
